Published values collected from several papers.
A part holds a random share of what one study measured. Substitutions count along the parent as printed.

Series 1
Target: RNA binding protein fox-1 homolog 2, RRM domain, GST-SBP tag (RBFOX2, Homo sapiens, UniProt O43251-10, residues 100-194)
Method: RNA Bind-n-Seq
Form: RNA
Sample: in vitro
Concentration: 365 nM
Notes: natural RNA segment, single round, ends assumed
Reference: no-protein control
Reading: higher = stronger binding
All sequences stand within: GGGAGUUCUACAGUCCGACGAUC … UGGAAUUCUCGGGUGCCAA
Residues (chain): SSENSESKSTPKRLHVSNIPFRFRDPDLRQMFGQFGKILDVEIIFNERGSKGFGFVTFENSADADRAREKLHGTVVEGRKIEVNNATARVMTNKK
Under “RBNS enrichment (R)”, `UUCCCAAACAGAGCAGUUAACUUUACUCUUGGUUCUGAGUCUCCAAAUAAUAAUAGCCGACGUUUAUUGAGCACUUACUAUGUGCCCAACCCUGUUAUGCCUUUCUCAGG` is recorded as 0.376.
Under “RBNS enrichment (R)”, `CUGCAGCACAGAGGGAAAUCUGCCGGGCAUCAAAUAUCUGUGUCCCCCAUAAUCCUAAUAAUAAAUCUAUUUUUCAUUCAGUUGUUAAACGUUGGAUUUUCGUACACUUC` is recorded as 1.48.
For `UAUUGUUGUUUCUCAUCAUUCUCACCUCGAGGAAGAGCAAGAGACUUAACCAGCAGGGCAAAUUCCACUUGCAGACAUCCUUUACUCUGUGGUCCCUUGUUAGUACCGAA`, “RBNS enrichment (R)” read 0.288.
`CUUCAUUUCUGGUGGCUUGGCUCUUGAGGUCACAGAUGAAGCUACACGUGGGCUGAGCUGACUUGAUGCUCCUAUGGGUGGUGCCCGGCCCCCACGGGGGUUCACUAGGU`: “RBNS enrichment (R)” 2.68.
Under “RBNS enrichment (R)”, `GAGACUGGCUGAAAUGAGGAGACUUUGACCAUGUGACGUGUCAACAGACUCAAGGAGACAACCACCUCAACUGGGUCAUGUGGCAUGCCUGUGUAUGUGUGUAACAGAAU` is recorded as 0.858.
`GAAUAAUUUAAAUGUGAGGAAAGAUAUCUGUGGUAGACAUGUCCUUCCAUGACUAAUUUCUAAUUGUAACUCAACACACAUUGAGGUAUGGGCCCUCCUCAGUGACUUUA` — result for “RBNS enrichment (R)”: 0.31.
`CCUUGGCCUCCUCGGCGUGCAACCUGGGCAAGCACCUCGGCGUGCACCAUGGAGCCGAAGCCCAGAGACCCUGUCUCAGGCCUACGCAACAGCCACGAAAUAUUCUGAAG` — result for “RBNS enrichment (R)”: 0.36.
`UUGGCAGUGAACUACUUUGAAGAAGUGGUCAAUGGGUUGUUGCUGCCAUGAGCAUGUACAACCUCUGGAGCUAGAAGCUCCUCAGGAAAGCCAGUUCUCCAAGUUCUUAA`: “RBNS enrichment (R)” 0.93.

Series 2
Target: RING finger protein unkempt homolog, zinc fingers 1-6, GST-SBP tag (UNK, Homo sapiens, UniProt Q9C0B0, residues 30-357)
Chain of UniProt Q9C0B0 (30-357, looked up): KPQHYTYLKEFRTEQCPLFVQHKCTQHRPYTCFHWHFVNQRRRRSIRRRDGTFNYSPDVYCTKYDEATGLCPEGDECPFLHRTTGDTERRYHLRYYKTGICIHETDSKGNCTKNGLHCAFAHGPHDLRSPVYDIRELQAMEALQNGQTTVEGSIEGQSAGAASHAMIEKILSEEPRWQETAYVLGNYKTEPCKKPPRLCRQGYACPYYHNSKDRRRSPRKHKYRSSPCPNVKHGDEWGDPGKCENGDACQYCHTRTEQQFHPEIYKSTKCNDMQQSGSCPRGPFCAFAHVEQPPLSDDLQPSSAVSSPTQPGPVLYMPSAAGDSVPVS
Method: RNA Bind-n-Seq
Form: RNA
Sample: in vitro
Concentration: not given
Notes: RNA with constant flanks, human-mouse chimeric sites, ends assumed
Reference: input RNA pool
Reading: higher = stronger binding
All sequences stand within: GGGAGUUCUACAGUCCGACGAUC … CAACAGAGGAUUGAGCAUCA
With `GACUUGGGACCGUCCUGGGCUAGUACAAAUAGCGGCAGUGGAGGCUCGAGAGGAAAGUUUGUUAGUGGAGGCAGUGGAGAGGUCGUCCAUGUACGGUCCUUUACUCGAUAGAUGUGUUCU` the bound/input enrichment was 0.661 ratio.
The bound/input enrichment of `AAAGAACUUGCUGAUGAUGAAGAUGAGGAAGACAAUGAUGAUGUUGAACCCAUUUCUGAAUUUCGAUUUGUGCCCAGUGAUAAGUCAGCGUUGGAGGCGAUGUUCACAGCAAUGUGUGAG` is reported as 0.315 ratio.
For `CGCUGGCCCAAGCUGAUGGACUCUGAUGGCCUCCAUCUCUCAGGCACGUGUGCCUUCUCUUAGUCCCUGUUUUCGGGAUGUUAUGAACAGUAUCAUGGUGGUUUGAAAGCAGUUAUGUUG`, the bound/input enrichment was 0.214 ratio.
`CUGGCCUGGCCCUCCCCUCUAGUGACCUUUCGUAUAGUCACUGCUUCUGCAUCAGAUACUUUCAGCUGCAACUCCCUACUGGGUGGGGCACCCAUUUCAGGCAGAAGUUGGUGCCCCCCU` has a bound/input enrichment of 0.609 ratio.
For `CUUAAUGUUAAUAUUUUUAAAGGAAGCAAGCUAAAAUGUCUGCUUUUGGUACAACACGCAUUAGCGAAAGGUUAAGUUUUGUUUUCCACUGAAGUACUAUUUAACAUCUCAGAAAAAAAC`, the bound/input enrichment was 0.328 ratio.

Series 3
Target: ABI1, truncated, D143A, DHFR fusion (Arabidopsis thaliana)
Method: DHFR PCA, deep sequencing
Sample: yeast
Notes: methotrexate growth selection, single substitutions
With: (+)-ABA 0.032 µM
Reference: wild-type fitted maximum
Reading: higher = stronger binding
Starting sequence: PYL1, truncated, DHFR fusion (Arabidopsis thaliana); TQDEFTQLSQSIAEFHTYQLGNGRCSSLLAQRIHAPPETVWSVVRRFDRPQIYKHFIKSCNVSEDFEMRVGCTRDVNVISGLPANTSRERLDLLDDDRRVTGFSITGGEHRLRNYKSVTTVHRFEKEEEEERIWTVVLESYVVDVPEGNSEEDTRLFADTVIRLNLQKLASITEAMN
Under “relative binding score”, `F103N` is recorded as 3.32%.
`N22W`: “relative binding score” 3.52%.
For `R74T`, “relative binding score” read 3.22%.
`R49S` — result for “relative binding score”: 12.4%.
Under “relative binding score”, `A158D` is recorded as 4.31%.
`L156V`: “relative binding score” 8.28%.
For `I172T`, “relative binding score” read 0.956%.
`D159R`: “relative binding score” -3.38%.
`L112I` — result for “relative binding score”: -4.8%.
Under “relative binding score”, `A170Q` is recorded as 10.1%.
Under “relative binding score”, `I52G` is recorded as 0.891%.
Under “relative binding score”, `T135D` is recorded as -5.17%.
For `E127G`, “relative binding score” read 30.1%.
`A175E` — result for “relative binding score”: 20.4%.

Series 4
Target: CCNB3, cyclin fold, Cln2 fusion (human)
Method: yeast growth competition, sequencing
Sample: yeast
Notes: weak parent motif
Reference: not given
Reading: higher = stronger binding
Starting sequence: WEE1 docking peptide (human); HKTFRKLRLFDTP
For `HKTFRFLRLFDTP [K6F]`, “normalised enrichment score” read -0.755.
For `HKTFRCLRLFDTP [K6C]`, “normalised enrichment score” read 0.489.
For `HKTFRKLYLFDTP [R8Y]`, “normalised enrichment score” read 0.918.
Under “normalised enrichment score”, `HKTFYKLRLFDTP [R5Y]` is recorded as -0.202.
`HKTFRKLRLFDTH [P13H]`: “normalised enrichment score” -0.415.
`HKTQRKLRLFDTP [F4Q]` — result for “normalised enrichment score”: 0.194.
`HKTFRNLRLFDTP [K6N]` — result for “normalised enrichment score”: 0.386.
For `HKTFRKLRLPDTP [F10P]`, “normalised enrichment score” read 0.489.
`HKTFRKLRLFDGP [T12G]` — result for “normalised enrichment score”: 0.479.
`HKTFRKLRLFDNP [T12N]` — result for “normalised enrichment score”: 0.626.
`HKTFRKLRLFDTM [P13M]`: “normalised enrichment score” 0.534.
`HKTFRKLRLFDVP [T12V]` — result for “normalised enrichment score”: 0.583.
Under “normalised enrichment score”, `HKTFRKLRDFDTP [L9D]` is recorded as 0.243.
`HETFRKLRLFDTP [K2E]`: “normalised enrichment score” 0.512.
Under “normalised enrichment score”, `HKTFVKLRLFDTP [R5V]` is recorded as -0.229.

Series 5
Target: Interferon regulatory factor 3, full length, phosphomimetic (IRF3, Homo sapiens, UniProt Q14653, residues 1-427, S386D/S396D/S398D/S402D/T404D/S405D)
Method: protein-binding microarray
Form: double-stranded DNA, one strand shown
Sample: in vitro
Concentration: 2540 nM top
Notes: 60-bp whole probe
With: salmon DNA 0.4 mg/ml
Reference: random background probes
Reading: higher = stronger binding
All sequences stand within: GCCTAGCAC … GTCTTGATTCGCTTGACGCTGCTG
Residues (chain): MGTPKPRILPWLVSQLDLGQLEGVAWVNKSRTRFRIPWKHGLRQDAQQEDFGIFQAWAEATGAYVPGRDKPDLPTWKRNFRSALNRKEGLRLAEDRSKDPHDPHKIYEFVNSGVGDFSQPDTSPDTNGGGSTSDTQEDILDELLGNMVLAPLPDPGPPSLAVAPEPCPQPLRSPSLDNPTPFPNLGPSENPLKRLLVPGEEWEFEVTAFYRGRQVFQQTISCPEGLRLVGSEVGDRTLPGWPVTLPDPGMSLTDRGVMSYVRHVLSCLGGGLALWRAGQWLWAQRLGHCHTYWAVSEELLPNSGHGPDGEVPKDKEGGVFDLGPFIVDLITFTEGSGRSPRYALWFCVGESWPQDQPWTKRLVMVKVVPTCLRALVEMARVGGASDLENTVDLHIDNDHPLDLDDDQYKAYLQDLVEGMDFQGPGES
`TTAGAACCGGGGTATCGATTAGTGCTA`: “fitted relative affinity” -0.182 z-score.
Under “fitted relative affinity”, `GACGGACTGGGGGCTGGGGACGTGCTA` is recorded as -0.71 z-score.
`TATTTTGGAAACTCACAACAGTGCTAG` — result for “fitted relative affinity”: 1.54 z-score.
Under “fitted relative affinity”, `AGGAATCTTGAGTTAGAGACGTGCTAG` is recorded as -0.644 z-score.
For `TCACATTCCCCATTGTGACTGTGCTAG`, “fitted relative affinity” read 2.1 z-score.
Under “fitted relative affinity”, `TTCTACTTCTCTTTTGGCTTGTGCTAG` is recorded as 2.56 z-score.
`AACCATTTTGGTTTTCCTTAGTGCTAG` — result for “fitted relative affinity”: 2.7 z-score.
`CTCTACATGTGTTTAAAAAGGTGCTAG` — result for “fitted relative affinity”: 0.0972 z-score.
`TCAACTATTGCTTCCTCACTGTGCTAG`: “fitted relative affinity” 0.231 z-score.
`TCAAATATATATATTATACTGTGCTAG` — result for “fitted relative affinity”: 0.31 z-score.
`TCAGCTTACAATATAAAACTGTGCTAG`: “fitted relative affinity” 0.528 z-score.
`TCAGGACTGCTTTTCCTTTAGTGCTAG` — result for “fitted relative affinity”: 0.95 z-score.
For `TGAGGTCTCGGTCTCGGTTAGTGCTAG`, “fitted relative affinity” read 0.641 z-score.
`TTGGAACTGGGGTTTCGATTAGTGCTA`: “fitted relative affinity” 1.06 z-score.
Under “fitted relative affinity”, `TTAGGTCTCGGACTGAGTTAGTGCTAG` is recorded as -0.284 z-score.
For `GACGGTTTCGACTATCTGGACGTGCTA`, “fitted relative affinity” read 2.85 z-score.
`CTGTTTCCATCTCTCAAAAGGTGCTAG`: “fitted relative affinity” 9.58 z-score.
`TCATATATATTGTTAGTACTGTGCTAG` — result for “fitted relative affinity”: 0.429 z-score.
`GTGTACATCTCTCTTAAATAGTGCTAG`: “fitted relative affinity” 1.05 z-score.

Repeated from above (series 1):
For `UAUUGUUGUUUCUCAUCAUUCUCACCUCGAGGAAGAGCAAGAGACUUAACCAGCAGGGCAAAUUCCACUUGCAGACAUCCUUUACUCUGUGGUCCCUUGUUAGUACCGAA`, “RBNS enrichment (R)” read 0.288.
`CCUUGGCCUCCUCGGCGUGCAACCUGGGCAAGCACCUCGGCGUGCACCAUGGAGCCGAAGCCCAGAGACCCUGUCUCAGGCCUACGCAACAGCCACGAAAUAUUCUGAAG` — result for “RBNS enrichment (R)”: 0.36.
Under “RBNS enrichment (R)”, `GAGACUGGCUGAAAUGAGGAGACUUUGACCAUGUGACGUGUCAACAGACUCAAGGAGACAACCACCUCAACUGGGUCAUGUGGCAUGCCUGUGUAUGUGUGUAACAGAAU` is recorded as 0.858.
Under “RBNS enrichment (R)”, `CUGCAGCACAGAGGGAAAUCUGCCGGGCAUCAAAUAUCUGUGUCCCCCAUAAUCCUAAUAAUAAAUCUAUUUUUCAUUCAGUUGUUAAACGUUGGAUUUUCGUACACUUC` is recorded as 1.48.
`CUUCAUUUCUGGUGGCUUGGCUCUUGAGGUCACAGAUGAAGCUACACGUGGGCUGAGCUGACUUGAUGCUCCUAUGGGUGGUGCCCGGCCCCCACGGGGGUUCACUAGGU`: “RBNS enrichment (R)” 2.68.
Under “RBNS enrichment (R)”, `UUCCCAAACAGAGCAGUUAACUUUACUCUUGGUUCUGAGUCUCCAAAUAAUAAUAGCCGACGUUUAUUGAGCACUUACUAUGUGCCCAACCCUGUUAUGCCUUUCUCAGG` is recorded as 0.376.
